# Results pooled from the literature.
# Compare with care: the assays were run in different laboratories. Numbers after ± are the reported error.
SMILES,organism,assay,system,setting,how to read,quantity,value
CN(C)CC12C3CCC4C3C3C(CCC31)C42,Influenza A virus,viral replication,"MDCK, H3N2 A/HK/7/87",,,EC50,> 100 µM
COc1ccc2nc(C)cc(OCC(=O)Nc3cc(C)cc(C)c3)c2c1,Haemophilus influenzae,"microbial growth, broth dilution",H128,,,MIC,64 µM
CC[C@H](C)[C@H](NC(=O)CNC(=O)[C@@H](NC(=O)[C@@H](N)Cc1ccccc1)[C@@H](C)CC)C(=O)N[C@@H](CCSC)C(=O)N[C@@H](C)C(=O)N[C@H](C(=O)N[C@@H](CC(C)C)C(=O)N[C@@H](C)C(=O)N[C@@H](CO)C(=O)N[C@@H](CC(C)C)C(=O)N[C@H](C(=O)N[C@H](C(=O)N1CCC[C@H]1C(=O)N[C@@H](CCCCN)C(=O)N[C@@H](CC(C)C)C(=O)N[C@H](C(=O)N[C@@H](CCC(=O)O)C(=O)N[C@@H](CCCCN)C(=O)N[C@H](C(=O)N[C@@H](CCCCN)C(=O)N[C@@H](CCC(N)=O)C(=O)N[C@@H](C)C(=O)N[C@@H](CCCNC(=N)N)C(N)=O)[C@@H](C)CC)[C@@H](C)CC)[C@@H](C)CC)C(C)C)[C@@H](C)O,Aspergillus flavus,ATP luminescence,ATCC 9170,"48 h, 37 °C",,MIC,> 50 µM
CCCCCCCC(=O)NCC(=O)N[C@@H](CC(C)C)C(=O)N[C@@H](CC(C)C)C(=O)N[C@@H](CCCCN)C(=O)N[C@@H](CCCNC(=N)N)C(=O)N[C@H](C(=O)N[C@@H](CCCCN)C(=O)N[C@H](C(=O)N[C@@H](CC(C)C)C(=O)N[C@@H](CC(C)C)C(N)=O)[C@@H](C)O)[C@@H](C)CC,Klebsiella pneumoniae,checkerboard,ATCC 700603,together with: polymyxin B,,FIC index,0.25
O=C1/C(=N\NC(=S)NN=Cc2cccs2)c2ccccc2N1Cc1ccccc1,Influenza A virus H3N2,"viral replication, visual CPE score",MDCK,,,EC50,> 4 µM
CCc1ccc([C@@H]2C[C@H](C(F)(F)F)n3ncc(C(=O)NCc4ccc(OC)cc4)c3N2)cc1,Haemophilus influenzae,broth microdilution,H128 AcrA-,,,MIC,16 µM
CNCC12C3CCC4C3C3C(CCC31)C42,Influenza A virus,viral replication,"MDCK, H1N1 A/PR/8/34",,,EC50,21 µM
CC(C)c1ccc2c(c1)CC[C@H]1[C@](C)(C(=O)OCC#CCN3CCOCC3)CCC[C@]21C,Influenza A virus,,"MDCK, A/Puerto Rico/8/34 (H1N1)",,reference: CC50 over IC50,selectivity index,< 1
CCC1(CC)C2CC3CC(C2)CC1(N)C3,Influenza A virus,viral replication,A/Ishikawa/7/82 (H3N2),,,EC50,> 100 µM
O=C1c2c(O)cc(O)cc2O[C@H](c2ccc(O)c(O)c2)[C@H]1O,human coronavirus 229E,viral replication,Huh-7,,,minimum effective concentration,2.5 µM
CNc1nc(SC)nc2ccccc12,Haemophilus influenzae,broth microdilution,H128 AcrA-,,,MIC,> 64 µM
CCCC(=O)NCC(=O)N[C@@H](CC(C)C)C(=O)N[C@@H](CC(C)C)C(=O)N[C@@H](CCCCN)C(=O)N[C@@H](CCCNC(=N)N)C(=O)N[C@H](C(=O)N[C@@H](CCCCN)C(=O)N[C@H](C(=O)N[C@@H](CC(C)C)C(=O)N[C@@H](CC(C)C)C(=O)NCCCC[C@H](NC(=O)[C@H](CCCCNC(=O)[C@H](CC(C)C)NC(=O)[C@H](CC(C)C)NC(=O)[C@@H](NC(=O)[C@H](CCCCN)NC(=O)[C@@H](NC(=O)[C@H](CCCNC(=N)N)NC(=O)[C@H](CCCCN)NC(=O)[C@H](CC(C)C)NC(=O)[C@H](CC(C)C)NC(=O)CNC(=O)CCC)[C@@H](C)CC)[C@@H](C)O)NC(=O)[C@H](CC(C)C)NC(=O)[C@H](CC(C)C)NC(=O)[C@@H](NC(=O)[C@H](CCCCN)NC(=O)[C@@H](NC(=O)[C@H](CCCNC(=N)N)NC(=O)[C@H](CCCCN)NC(=O)[C@H](CC(C)C)NC(=O)[C@H](CC(C)C)NC(=O)CNC(=O)CCC)[C@@H](C)CC)[C@@H](C)O)C(N)=O)[C@@H](C)O)[C@@H](C)CC,Klebsiella pneumoniae,checkerboard,ATCC 700603,together with: polymyxin B,,FIC index,0.312
CN1CC23C4CCC5C4C4C2CCC4C53C1,Influenza A virus,"viral replication, inhibitor",H3N2,,,EC50,> 100 µM
c1cc2c(s1)CCOC21CCN(Cc2ccc3c(c2)OCCO3)CC1,Haemophilus influenzae,"microbial growth, broth dilution",H128,,,MIC,64 µM
CCCCCCCCCC(=O)NCC(=O)N[C@@H](CC(C)C)C(=O)N[C@@H](CC(C)C)C(=O)N[C@@H](CCCCN)C(=O)N[C@@H](CCCNC(=N)N)C(=O)N[C@H](C(=O)N[C@@H](CCCCN)C(=O)N[C@H](C(=O)N[C@@H](CC(C)C)C(=O)N[C@@H](CC(C)C)C(N)=O)[C@@H](C)O)[C@@H](C)CC,Klebsiella pneumoniae,checkerboard,ATCC 700603,together with: rifampicin,,FIC index,0.375
CCC[C@H](NC(=O)[C@H](CC(C)C)NC(=O)OCc1ccccc1)C(=O)C(=O)NCc1ccccn1,human coronavirus NL63,viral replication,,,,EC50,0.73 ± 0.12 µM
CC(N)C12C3CCC4C3C3C(CCC31)C42 (centres unmarked),Influenza A virus,viral replication,"MDCK, H3N2 A/HK/7/87",,,EC50,> 100 µM
Cc1ccc2nc(C)c(C(=O)NCc3cccs3)n2c1,Haemophilus influenzae,"microbial growth, broth dilution",H128,,,MIC,> 64 µM
CONC(=O)[C@H]1[C@@H](O)[C@@]2(O)c3c(OC)cc(OC)cc3O[C@@]2(c2ccc(OC)cc2)[C@@H]1c1ccccc1,Human coronavirus 229E,measured: nsp8 and dsRNA,MRC-5,"concentration not given, 24 h post-infection",,replication complex formation,decreased
Cc1nc(N2CCC(N(C)c3cc(C(=O)NCCN4CCCC4)cnn3)CC2)nc(C)c1CC(C)C,human coronavirus 229E,viral replication,Huh-7,3 µM,,inhibition,53%
C1CC2C3C4C5CCC4C24CNCC54C13,Influenza A virus,"viral replication, inhibitor",H3N2,,,EC50,> 100 µM
COc1cc(/C=C/C(=O)/C=C/c2ccc(O)c(OC)c2)ccc1O,VSV-G pseudotyped HIV-1 pNL4-3,viral replication,,,,IC50,0.7 µM
NC12C3CCC4C3C3C(CCC31)C42,Influenza A virus,viral replication,"MDCK, H1N1 A/PR/8/34",,,EC50,10 µM
O=C(NC12CC3CC(CC(C3)C1)C2)c1cc2cc(Cl)ccc2[nH]1,Haemophilus influenzae,broth microdilution,H128 AcrA-,,,MIC,> 64 µM
CCN(CC)CC#CCOC(=O)[C@]1(C)CCC[C@]2(C)c3ccc(C(C)C)cc3CC[C@@H]12,Influenza A virus,viral replication,"MDCK, A/Puerto Rico/8/34 (H1N1)",,,IC50,21 µM
CC[C@H](C)[C@H](NC(=O)[C@H](CCCNC(=N)N)NC(=O)[C@H](CCCCN)NC(=O)[C@H](CC(C)C)NC(=O)[C@H](CC(C)C)NC(=O)CN)C(=O)N[C@@H](CCCCN)C(=O)N[C@H](C(=O)N[C@@H](CC(C)C)C(=O)N[C@@H](CC(C)C)C(=O)NCCCC[C@H](NC(=O)[C@H](CC(C)C)NC(=O)[C@H](CC(C)C)NC(=O)[C@@H](NC(=O)[C@H](CCCCN)NC(=O)[C@@H](NC(=O)[C@H](CCCNC(=N)N)NC(=O)[C@H](CCCCN)NC(=O)[C@H](CC(C)C)NC(=O)[C@H](CC(C)C)NC(=O)CN)[C@@H](C)CC)[C@@H](C)O)C(=O)NCCCC[C@H](NC(=O)[C@H](CCCCNC(=O)[C@H](CC(C)C)NC(=O)[C@H](CC(C)C)NC(=O)[C@@H](NC(=O)[C@H](CCCCN)NC(=O)[C@@H](NC(=O)[C@H](CCCNC(=N)N)NC(=O)[C@H](CCCCN)NC(=O)[C@H](CC(C)C)NC(=O)[C@H](CC(C)C)NC(=O)CN)[C@@H](C)CC)[C@@H](C)O)NC(=O)[C@H](CC(C)C)NC(=O)[C@H](CC(C)C)NC(=O)[C@@H](NC(=O)[C@H](CCCCN)NC(=O)[C@@H](NC(=O)[C@H](CCCNC(=N)N)NC(=O)[C@H](CCCCN)NC(=O)[C@H](CC(C)C)NC(=O)[C@H](CC(C)C)NC(=O)CN)[C@@H](C)CC)[C@@H](C)O)C(N)=O)[C@@H](C)O,Klebsiella pneumoniae,checkerboard,ATCC 700603,together with: rifampicin,,FIC index,0.25
CC(=N)NC12C3CCC4C3C3C(CCC31)C42,Influenza A virus,viral replication,"MDCK, H3N2 A/HK/7/87",,,EC50,> 100 µM
CC[C@H](C)[C@H](NC(=O)[C@H](CCCNC(=N)N)NC(=O)[C@H](CCCCN)NC(=O)[C@H](CC(C)C)NC(=O)[C@H](CC(C)C)NC(=O)CN)C(=O)N[C@@H](CCCCN)C(=O)N[C@H](C(=O)N[C@@H](CC(C)C)C(=O)N[C@@H](CC(C)C)C(=O)NCCCC[C@H](NC(=O)[C@H](CC(C)C)NC(=O)[C@H](CC(C)C)NC(=O)[C@@H](NC(=O)[C@H](CCCCN)NC(=O)[C@@H](NC(=O)[C@H](CCCNC(=N)N)NC(=O)[C@H](CCCCN)NC(=O)[C@H](CC(C)C)NC(=O)[C@H](CC(C)C)NC(=O)CN)[C@@H](C)CC)[C@@H](C)O)C(N)=O)[C@@H](C)O,Klebsiella pneumoniae,checkerboard,ATCC 700603,together with: gentamicin,,FIC index,0.625
CC(C)C1=C[C@@]23CC[C@@H]4[C@](C)(CCC[C@@]4(C)C(=O)OCC#CCN4CCOCC4)[C@H]2C[C@@H]1[C@H]1C(=O)OC(=O)[C@H]13,Influenza A virus,viral replication,"MDCK, A/Puerto Rico/8/34 (H1N1)",,,IC50,6.47 µM

# Excerpt of the above:
SMILES,organism,assay,system,setting,how to read,quantity,value
CONC(=O)[C@H]1[C@@H](O)[C@@]2(O)c3c(OC)cc(OC)cc3O[C@@]2(c2ccc(OC)cc2)[C@@H]1c1ccccc1,Human coronavirus 229E,measured: nsp8 and dsRNA,MRC-5,"concentration not given, 24 h post-infection",,replication complex formation,decreased
CCN(CC)CC#CCOC(=O)[C@]1(C)CCC[C@]2(C)c3ccc(C(C)C)cc3CC[C@@H]12,Influenza A virus,viral replication,"MDCK, A/Puerto Rico/8/34 (H1N1)",,,IC50,21 µM
CC[C@H](C)[C@H](NC(=O)CNC(=O)[C@@H](NC(=O)[C@@H](N)Cc1ccccc1)[C@@H](C)CC)C(=O)N[C@@H](CCSC)C(=O)N[C@@H](C)C(=O)N[C@H](C(=O)N[C@@H](CC(C)C)C(=O)N[C@@H](C)C(=O)N[C@@H](CO)C(=O)N[C@@H](CC(C)C)C(=O)N[C@H](C(=O)N[C@H](C(=O)N1CCC[C@H]1C(=O)N[C@@H](CCCCN)C(=O)N[C@@H](CC(C)C)C(=O)N[C@H](C(=O)N[C@@H](CCC(=O)O)C(=O)N[C@@H](CCCCN)C(=O)N[C@H](C(=O)N[C@@H](CCCCN)C(=O)N[C@@H](CCC(N)=O)C(=O)N[C@@H](C)C(=O)N[C@@H](CCCNC(=N)N)C(N)=O)[C@@H](C)CC)[C@@H](C)CC)[C@@H](C)CC)C(C)C)[C@@H](C)O,Aspergillus flavus,ATP luminescence,ATCC 9170,"48 h, 37 °C",,MIC,> 50 µM
O=C(NC12CC3CC(CC(C3)C1)C2)c1cc2cc(Cl)ccc2[nH]1,Haemophilus influenzae,broth microdilution,H128 AcrA-,,,MIC,> 64 µM
